# Measurements from different studies.
# Protocols differ between the studies behind these lines.
# B1: mel-26 (Caenorhabditis elegans, UniProt Q94420); sequence looked up; chain MEPRIDGGVFIGGIGNSGNEMCSNGVPALGVSSQTEIKVEKVQHTWTVKNFSHCYQEYLENFVYLQRGDEQLTWSIKIYPKGNGENNKDFVFLCLNRVINNNVKAGKIGFKSQFKLRTAENKDIEMRIHPNPSHSDYVSYIKRDVLFPQIMPRDMIIVNVEIDVAVETITTTNEPIQFEPTNSEQQLIEDYQRLFSQELLCDFAINVNGKIIRAHKAVLAARSPVFNAMLTHQDTDEAKSSMMYINDMDYDVIYEMVYYIYCGRCNKDITDMATALLIAADKYRLEELKSHCEKYLVENINIENACSLLIIGDLYSAPKLRKRAVTYILARPKNVTGTPGWEDILKGHPNLITDIFSQIDRQSSTGATSSVSNLPGVPMDIPGITGNIVPPPSGL
# B2: UGT1A9 (Homo sapiens, UniProt O60656); chain GKLLVVPMDGSHWFTMRSVVEKLILRGHEVVVVMPEVSWQLGRSLNCTVKTYSTSYTLEDLDREFKAFAHAQWKAQVRSIYSLLMGSYNDIFDLFFSNCRSLFKDKKLVEYLKESSFDAVFLDPFDNCGLIVAKYFSLPSVVFARGILCHYLEEGAQCPAPLSYVPRILLGFSDAMTFKERVRNHIMHLEEHLLCHRFFKNALEIASEILQTPVTEYDLYSHTSIWLLRTDFVLDYPKPVMPNMIFIGGINCHQGKPLPMEFEAYINASGEHGIVVFSLGSMVSEIPEKKAMAIADALGKIPQTVLWRYTGTRPSNLANNTILVKWLPQNDLLGHPMTRAFITHAGSHGVYESICNGVPMVMMPLFGDQMDNAKRMETKGAGVTLNVLEMTSEDLENALKAVINDKSYKENIMRLSSLHKDRPVEPLDLAVFWVEFVMRHKGAPHLRPAAHDLTWYQYHSLDVIGFLLAVVLTVAFITFKCCAYGYRKCLGKKGRVKKAHKSKTH
# B3: FGF6 (Homo sapiens, UniProt P10767); chain SPAGTRANNTLLDSRGWGTLLSRSRAGLAGEIAGVNWESGYLVGIKRQRRLYCNVGIGFHLQVLPDGRISGTHEENPYSLLEISTVERGVVSLFGVRSALFVAMNSKGRLYATPSFQEECKFRETLLPNNYNAYESDLYQGTYIALSKYGRVKRGSKVSPIMTVTHFLPRI
# B4: U2AF1 (Homo sapiens, UniProt Q01081); chain MAEYLASIFGTEKDKVNCSFYFKIGACRHGDRCSRLHNKPTFSQTIALLNIYRNPQNSSQSADGLRCAVSDVEMQEHYDEFFEEVFTEMEEKYGEVEEMNVCDNLGDHLVGNVYVKFRREEDAEKAVIDLNNRWFNGQPIHAELSPVTDFREACCRQYEMGECTRGGFCNFMHLKPISRELRRELYGRRRKKHRSRSRSRERRSRSRDRGRGGGGGGGGGGGGRERDRRRSRDRERSGRF
# Chain of UniProt P46873 (whole entry, looked up): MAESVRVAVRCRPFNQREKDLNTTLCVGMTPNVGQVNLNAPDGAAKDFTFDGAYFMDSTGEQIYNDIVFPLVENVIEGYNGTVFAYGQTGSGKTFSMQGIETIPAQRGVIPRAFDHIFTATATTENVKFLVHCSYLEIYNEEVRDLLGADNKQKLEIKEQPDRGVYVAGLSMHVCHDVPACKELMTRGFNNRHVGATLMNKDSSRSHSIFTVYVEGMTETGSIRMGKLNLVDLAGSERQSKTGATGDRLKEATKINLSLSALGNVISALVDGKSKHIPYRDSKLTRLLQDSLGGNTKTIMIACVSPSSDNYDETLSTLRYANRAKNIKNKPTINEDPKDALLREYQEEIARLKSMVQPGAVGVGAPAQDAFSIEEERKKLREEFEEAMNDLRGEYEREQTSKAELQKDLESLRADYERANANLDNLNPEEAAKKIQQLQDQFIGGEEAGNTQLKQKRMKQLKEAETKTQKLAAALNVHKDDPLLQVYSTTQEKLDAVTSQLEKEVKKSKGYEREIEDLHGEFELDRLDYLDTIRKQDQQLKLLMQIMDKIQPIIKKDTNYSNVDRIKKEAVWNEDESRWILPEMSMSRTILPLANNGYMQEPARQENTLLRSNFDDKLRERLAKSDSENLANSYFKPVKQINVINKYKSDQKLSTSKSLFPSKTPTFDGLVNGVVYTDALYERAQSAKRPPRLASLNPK
# Chain of UniProt Q61851 (whole entry, looked up): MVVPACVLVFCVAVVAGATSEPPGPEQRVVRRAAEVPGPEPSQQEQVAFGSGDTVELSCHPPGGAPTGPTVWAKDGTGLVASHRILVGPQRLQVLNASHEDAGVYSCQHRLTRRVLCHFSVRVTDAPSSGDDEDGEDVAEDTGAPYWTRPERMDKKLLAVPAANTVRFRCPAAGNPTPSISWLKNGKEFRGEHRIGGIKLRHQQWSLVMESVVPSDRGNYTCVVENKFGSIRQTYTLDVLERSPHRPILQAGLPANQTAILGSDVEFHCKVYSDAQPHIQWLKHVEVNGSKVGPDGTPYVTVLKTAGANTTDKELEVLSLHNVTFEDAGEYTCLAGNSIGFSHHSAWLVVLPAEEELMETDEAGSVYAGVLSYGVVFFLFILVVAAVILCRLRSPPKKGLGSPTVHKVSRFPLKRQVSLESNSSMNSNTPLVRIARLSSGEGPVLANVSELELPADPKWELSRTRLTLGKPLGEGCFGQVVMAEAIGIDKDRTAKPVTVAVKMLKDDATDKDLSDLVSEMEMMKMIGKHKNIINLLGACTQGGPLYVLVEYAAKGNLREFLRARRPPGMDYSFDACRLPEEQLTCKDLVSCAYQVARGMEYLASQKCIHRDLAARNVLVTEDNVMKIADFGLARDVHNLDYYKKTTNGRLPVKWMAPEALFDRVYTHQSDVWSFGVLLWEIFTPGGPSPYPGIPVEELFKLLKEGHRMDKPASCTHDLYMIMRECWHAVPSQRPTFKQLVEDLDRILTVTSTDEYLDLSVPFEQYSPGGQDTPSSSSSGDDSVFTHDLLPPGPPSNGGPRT
# Chain of UniProt P34808 (whole entry, unmodified, looked up): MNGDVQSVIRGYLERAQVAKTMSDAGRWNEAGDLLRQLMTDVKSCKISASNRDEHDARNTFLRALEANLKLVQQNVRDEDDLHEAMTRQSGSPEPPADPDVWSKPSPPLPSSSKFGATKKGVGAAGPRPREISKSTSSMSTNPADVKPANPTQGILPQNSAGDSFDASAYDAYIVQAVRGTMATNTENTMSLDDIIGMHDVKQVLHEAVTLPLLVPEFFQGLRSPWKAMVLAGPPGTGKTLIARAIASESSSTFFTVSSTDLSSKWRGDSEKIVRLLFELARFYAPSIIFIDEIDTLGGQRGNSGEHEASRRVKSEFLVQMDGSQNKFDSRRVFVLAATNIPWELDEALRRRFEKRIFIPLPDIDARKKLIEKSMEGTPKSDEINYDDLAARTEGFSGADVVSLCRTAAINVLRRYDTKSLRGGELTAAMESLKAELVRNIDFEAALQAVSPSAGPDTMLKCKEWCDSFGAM
# Chain of UniProt P38823 (whole entry, looked up): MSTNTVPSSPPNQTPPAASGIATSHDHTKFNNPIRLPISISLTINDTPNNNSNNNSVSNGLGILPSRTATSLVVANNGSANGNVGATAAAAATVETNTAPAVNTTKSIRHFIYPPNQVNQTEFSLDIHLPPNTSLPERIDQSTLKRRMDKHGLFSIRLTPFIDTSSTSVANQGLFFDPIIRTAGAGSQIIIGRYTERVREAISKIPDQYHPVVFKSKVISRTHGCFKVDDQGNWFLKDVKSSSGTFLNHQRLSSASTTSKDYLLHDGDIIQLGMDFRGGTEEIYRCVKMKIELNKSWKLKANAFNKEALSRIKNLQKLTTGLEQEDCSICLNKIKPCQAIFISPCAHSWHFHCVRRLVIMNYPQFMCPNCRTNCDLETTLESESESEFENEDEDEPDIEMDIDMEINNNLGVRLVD
# Chain of UniProt P31266 (whole entry, unmodified, looked up): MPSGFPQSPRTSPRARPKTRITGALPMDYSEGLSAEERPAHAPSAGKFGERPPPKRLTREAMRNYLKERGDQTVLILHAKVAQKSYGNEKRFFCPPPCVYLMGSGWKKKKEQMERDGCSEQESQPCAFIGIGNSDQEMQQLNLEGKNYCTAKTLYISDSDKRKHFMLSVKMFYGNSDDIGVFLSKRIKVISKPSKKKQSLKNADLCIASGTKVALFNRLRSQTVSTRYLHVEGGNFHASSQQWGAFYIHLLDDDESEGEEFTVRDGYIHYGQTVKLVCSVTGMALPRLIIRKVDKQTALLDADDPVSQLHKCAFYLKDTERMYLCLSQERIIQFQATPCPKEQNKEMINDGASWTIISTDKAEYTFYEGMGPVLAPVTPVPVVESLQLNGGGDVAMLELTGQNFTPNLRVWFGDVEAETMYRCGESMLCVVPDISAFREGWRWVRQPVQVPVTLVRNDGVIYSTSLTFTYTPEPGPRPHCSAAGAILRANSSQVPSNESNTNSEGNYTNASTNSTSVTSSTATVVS
# Chain of UniProt P26368 (whole entry, looked up): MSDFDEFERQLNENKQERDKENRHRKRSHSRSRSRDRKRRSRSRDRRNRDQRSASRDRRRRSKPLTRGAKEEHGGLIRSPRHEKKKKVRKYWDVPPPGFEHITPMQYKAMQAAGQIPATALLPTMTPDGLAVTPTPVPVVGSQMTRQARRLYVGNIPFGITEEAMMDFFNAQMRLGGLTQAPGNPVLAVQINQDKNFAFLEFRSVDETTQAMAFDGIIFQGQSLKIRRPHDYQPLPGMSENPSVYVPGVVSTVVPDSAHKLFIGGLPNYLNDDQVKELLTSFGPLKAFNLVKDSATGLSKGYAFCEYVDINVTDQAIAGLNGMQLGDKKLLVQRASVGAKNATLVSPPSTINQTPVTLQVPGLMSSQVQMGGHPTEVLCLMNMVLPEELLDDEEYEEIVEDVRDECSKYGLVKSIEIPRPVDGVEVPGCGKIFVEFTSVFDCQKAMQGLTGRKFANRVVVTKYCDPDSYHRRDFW
# Chain of UniProt P0A6A8 (whole entry, looked up): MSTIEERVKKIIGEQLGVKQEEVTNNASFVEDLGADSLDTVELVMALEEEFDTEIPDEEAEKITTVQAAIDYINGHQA
# Chain of UniProt Q8SPP9 (whole entry, looked up): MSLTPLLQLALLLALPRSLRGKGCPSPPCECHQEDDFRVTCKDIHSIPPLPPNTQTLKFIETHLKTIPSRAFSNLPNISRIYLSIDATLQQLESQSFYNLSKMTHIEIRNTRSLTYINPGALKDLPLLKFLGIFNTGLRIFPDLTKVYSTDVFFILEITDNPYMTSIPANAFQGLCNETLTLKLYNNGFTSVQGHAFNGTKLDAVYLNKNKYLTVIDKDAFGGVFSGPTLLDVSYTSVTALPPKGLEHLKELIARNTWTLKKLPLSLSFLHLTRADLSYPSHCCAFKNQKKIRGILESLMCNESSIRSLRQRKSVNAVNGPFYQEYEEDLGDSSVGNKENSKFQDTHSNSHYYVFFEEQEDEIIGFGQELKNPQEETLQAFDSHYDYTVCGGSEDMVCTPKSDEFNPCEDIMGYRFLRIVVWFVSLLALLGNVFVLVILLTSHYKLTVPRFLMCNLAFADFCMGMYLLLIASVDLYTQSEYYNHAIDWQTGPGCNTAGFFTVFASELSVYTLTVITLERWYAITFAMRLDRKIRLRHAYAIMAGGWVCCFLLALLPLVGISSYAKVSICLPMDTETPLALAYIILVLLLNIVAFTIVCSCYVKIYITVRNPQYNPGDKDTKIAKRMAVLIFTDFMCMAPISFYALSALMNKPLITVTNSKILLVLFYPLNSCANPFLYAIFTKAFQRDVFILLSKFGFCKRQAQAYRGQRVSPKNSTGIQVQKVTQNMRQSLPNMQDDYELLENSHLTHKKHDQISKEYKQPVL
Molecule,target or system,assay,system,setting,scale,measurement,value
B1 (mel-26),"mei-1 S137A, phosphorylated by MBK-2 (Caenorhabditis elegans, UniProt P34808)",far-Western,,"4 °C, denatured",,binding,binds
B2 (UGT1A9),O=c1cc(-c2ccc(O)cc2)oc2ccccc12,steady-state kinetics,,"pH 7.4, 37 °C",,Vmax,9.87e-05 µmol/min/mg
KVAHPIRPKPPSATSIPAILKALQDEWDAVMLHSFTL (PRPF19 56-92 (Homo sapiens)),"PRPF19 (Homo sapiens, UniProt Q9UMS4)","in vitro pre-mRNA splicing, inhibitor","peptide, nuclear extract",,,splicing inhibition,21 nmol
MMP2 fragment R252A/F297A/R368A (Homo sapiens),"COL1A1/COL1A2 denatured, gelatin (Homo sapiens)",DQ-gelatin fluorescence,,"10 nM, 25 °C",higher = faster hydrolysis,hydrolysis rate,0.029 RFU/s
CLSTAADMQGVVTDGMASGLDKDYLKPDD (azu residues 50-77),TP63 DBD 127-323 (Homo sapiens),atomic force spectroscopy,peptide,"pH 7.5, NaCl 150 mM",,kon,17000 M⁻¹ s⁻¹
"TFPI endogenous, on cells (Homo sapiens, UniProt P10646)",F10 factor Xa,factor Xa inhibition,HUVEC,"100 µg/mL total protein, final, methyl-β-cyclodextrin",,free factor Xa,0.046 nM
B3 (FGF6),"FGFR3 isoform IIIc (unknown, UniProt Q61851)","cell proliferation, MTT",BaF3-FGFR3c,"20 nM, 48 h, added: chondroitin sulfate E 4.9 µg/mL","baseline: FGF 1 with heparin, higher = more proliferation",cell proliferation,3%
"VAC17 peptide around Thr240, pT240 (Saccharomyces cerevisiae)","DMA1 (Saccharomyces cerevisiae, UniProt P38823)",ThermoFluor,,added: phospho-Thr240 peptide,higher = more stable,melting temperature,45.6 °C
B4 (U2AF1),"U2AF2 (Homo sapiens, UniProt P26368)",two-hybrid,yeast EGY48,30 °C,"baseline: empty prey vector, higher = stronger interaction",two-hybrid β-galactosidase activity,124 fold over background
dyf-1/osm-6 (Caenorhabditis elegans),"osm-3 (Caenorhabditis elegans, UniProt P46873)",single-molecule transport,,,,velocity,1.8 µm/s
fabF K65A/R68A/K69A (Escherichia coli),"acpP C12-acylated 1-78, C12 acyl on 4'-phosphopantetheine (Escherichia coli, UniProt P0A6A8)","holo-AcpP formation, HPLC",,"10 µM, added: malonyl-CoA",,condensation rate,0.13 min⁻¹
"CGA/TSHB, 125I label (Bos taurus)","TSHR (Sus scrofa, UniProt Q8SPP9)",radioligand binding,solubilized porcine thyroid membrane,,"baseline: negative reference serum, higher = more bound tracer",PEG-precipitable radioactivity,8200 cpm
"MENVKKATATTTWMVPTAA (L3MBTL3 52-70 Q70A (Homo sapiens, UniProt Q96JM7-2); sequence looked up)","Rbpj 53-474 (Mus musculus, UniProt P31266)",ITC,peptide,"pH 6.5, 25 °C, NaCl 150 mM",,ΔH,-14.2 kcal/mol

# Some of these lines once more:
Molecule,target or system,assay,system,setting,scale,measurement,value
MMP2 fragment R252A/F297A/R368A (Homo sapiens),"COL1A1/COL1A2 denatured, gelatin (Homo sapiens)",DQ-gelatin fluorescence,,"10 nM, 25 °C",higher = faster hydrolysis,hydrolysis rate,0.029 RFU/s
CLSTAADMQGVVTDGMASGLDKDYLKPDD (azu residues 50-77),TP63 DBD 127-323 (Homo sapiens),atomic force spectroscopy,peptide,"pH 7.5, NaCl 150 mM",,kon,17000 M⁻¹ s⁻¹
